Experimental data collected from several papers.
Numbered parts are unrelated; each lists some results of a single study.

Set 1 — technique: RNA Bind-n-Seq; molecule type: RNA; medium: in vitro; tested at: 200 nM; setting: whole 134-nt RNA, ends assumed; added: 150 mM KCl; reference: input library; reading: higher = stronger binding
Target: Fragile X messenger ribonucleoprotein 1, C-terminal low-complexity region (Fmr1, Mus musculus, UniProt P35922)
The log2 enrichment of `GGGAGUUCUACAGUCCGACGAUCAGUCCUGUGCUACACAUCGUAUGUACCGAAUCGGGAAAAAAAGGGAGGGAAAAAGGGAAAGUAUUAUGUUACGCCGUUCGGAUCUGCACUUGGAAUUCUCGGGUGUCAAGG` is reported as 0.139.
`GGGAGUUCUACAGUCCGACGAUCCACAGACAACAUGCACCCACACAGACACAGAGGGAAGGGGUUGGGAUGGGGACAGGGUGCACAGCAGGGCGGGGUAGGACCCCAGCCCCUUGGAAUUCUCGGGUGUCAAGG` gave a log2 enrichment of 1.3.
`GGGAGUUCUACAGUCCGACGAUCUGGGAGGUGGAUUUUGUCUAUUUUUUUAGCUCAUUUCCAGGGGUGGGAAUUUUUUUUUAAUAUGUGUCAUGAAUAAAGUUGUUUUUGAAAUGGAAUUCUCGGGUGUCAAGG` has a log2 enrichment of 0.16.
`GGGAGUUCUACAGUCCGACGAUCAGUCCUGUGCUACACAUCGUAUGUACCGAAUCGGAAAAAAAGGUUUUUGGAAAAAGGAAAGUAUUAUGUUACGCCGUUCGGAUCUGCACUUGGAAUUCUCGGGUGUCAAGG` has a log2 enrichment of -1.41.
`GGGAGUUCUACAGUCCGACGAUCUCCUCAAGUCCUGUGCUACACAUCGUAUGUACCGAAUCGGUGGGUGGGUGGGAAAGUAUUAUGUUACGCCGUUCGGAUCUGCACUUCCAGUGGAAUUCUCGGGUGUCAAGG` has a log2 enrichment of 1.37.
The log2 enrichment of `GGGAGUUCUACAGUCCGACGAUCUUCUCCUGCCCCGAAGCUCGCUGUGCGUGUGCGUGUGUGUGUCCCUCCGCCAACGCCGCCACCUCAGCCCGGCAAAUGAACUCCGUCCGAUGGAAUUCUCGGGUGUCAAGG` is reported as 0.442.

Set 2 — technique: RNA Bind-n-Seq; molecule type: RNA; medium: in vitro; tested at: 365 nM; reference: no-protein control; reading: higher = stronger binding
Target: RNA binding protein fox-1 homolog 2, RRM domain, GST-SBP tag (RBFOX2, Homo sapiens, UniProt O43251-10, residues 100-194)
Setting: natural RNA segment, single round, ends assumed
Target sequence (chain): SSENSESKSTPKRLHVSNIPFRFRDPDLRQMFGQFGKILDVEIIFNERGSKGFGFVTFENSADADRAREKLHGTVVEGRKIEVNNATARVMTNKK
`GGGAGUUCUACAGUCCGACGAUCGGCCACUCUCACUCCAGUGCCCCCCAGAGACCCCAGCCAGAUGGCUCAGACUGUCCUGCAUGAAGGCAGGAGAGCUGAACUCUCUCUGGUCCUUGUCUUUCCCAAUCUUUUGGAAUUCUCGGGUGCCAA`: “RBNS enrichment (R)” 0.564.
Under “RBNS enrichment (R)”, `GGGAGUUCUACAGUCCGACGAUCCUGGGAGGAAAGCAUGGCCCAGCAUUCAGCAUGUGUUCCUUUCUGCAGUGGUUCUUAUCACCACCUCCCUCCCAGCCCCAGCGCCUCAGCCCCAGCCCCAGCUCCAGCCCUGGAAUUCUCGGGUGCCAA` is recorded as 6.52.
`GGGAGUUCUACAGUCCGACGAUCGUCACCAGUGAGCCAUAUUUAUUAUUUCUAGAGAAAUCACGAACUGCUUUCUGUAAUUGCACUGUGGAUAAAUGUUCCGAGAGUCUCCAUUGUUGUACAGGAUCUUCAGUUGGAAUUCUCGGGUGCCAA`: “RBNS enrichment (R)” 0.79.
For `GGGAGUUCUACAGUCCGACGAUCCCUGCACACUGGCUUUUUUAGUCAUUUAUGGGCAAAAAGAGUUAAAGUAAAACUUUGCAAAUCCCGACCUGCCAGCGUUUCUCUGGGGAUCACGGUGUGUGUGUGCGUGCUGGAAUUCUCGGGUGCCAA`, “RBNS enrichment (R)” read 0.518.
`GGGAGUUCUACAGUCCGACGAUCUUUACCCAGGCCGGGUCAUCUAGCAAGGGAGCUGGUCGUGGAGUGCGGCAGAGACCUCUCCACCCAGAAGCCCUUUCUGUGUCCCCCUCUGCCUCCCUUCUUCCCUCCUCUGGAAUUCUCGGGUGCCAA`: “RBNS enrichment (R)” 0.381.
`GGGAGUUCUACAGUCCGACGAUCAGCAUGCACGUGAAAAUAGAAAGGUAAUUUAACAACACACAGACACCCAGAGACUUGGUCUCUGCAUGUGUGUAGAAGUAGUGGUGUGGGGAGGGAUGGGACUCACUCAGUGGAAUUCUCGGGUGCCAA`: “RBNS enrichment (R)” 16.2.
`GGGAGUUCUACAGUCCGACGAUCCAGUCCCAACUGCAGUUUUAUUUUUACUUCAGAAGUAGAUUUCCUUCAAACCACAUGAGAUCUCUGCCACCCACCCACAAUCAAGCCCUAUAUUCCCAAGGAGGCUGACUUGGAAUUCUCGGGUGCCAA`: “RBNS enrichment (R)” 0.628.
`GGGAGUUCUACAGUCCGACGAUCGUGAUGUAUGUAUAUGAGAAAAUUAAUUGUACGAUAUCAUUCCAGUACGUUUUGUUGUACAUUUUAGUCUUGUUUACUUUCUCUUCAUUGUUAAGAGGAUGCGAACUGUAUGGAAUUCUCGGGUGCCAA` — result for “RBNS enrichment (R)”: 1.01.
For `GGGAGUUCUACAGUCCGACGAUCUCUGCCAUUUGUGGAAACAACGUAAAUUCUACUUAAGUGUAAACAAGGCAAGCCUCAGACCAGCAAUAAAUUACUCAGUUUGGAUAACAUUAUUUUGUGCAGUUAAUCAAUGGAAUUCUCGGGUGCCAA`, “RBNS enrichment (R)” read 0.31.
`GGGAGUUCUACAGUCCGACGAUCAUCCAUUCGAAAUCUGUAUCCCAUUUGAUCCUUAUGUAAGUCUCAUGAGUAAACAGAACAGAAUUUUUUUUUCUUGUGUGCAUGAAAGAAUUUGCAGAUCGCAGAGGACAUGGAAUUCUCGGGUGCCAA`: “RBNS enrichment (R)” 1.68.

Set 3 — technique: protein-binding microarray; molecule type: double-stranded DNA, one strand shown; medium: in vitro; tested at: 250 nM; setting: 60-bp whole probe; added: salmon DNA 0.4 mg/ml; reference: random background probes; reading: higher = stronger binding; shared flanks, not repeated: GCCTAGCAC … GTCTTGATTCGCTTGACGCTGCTG
Target: Interferon regulatory factor 5, full length, phosphomimetic (IRF5, Homo sapiens, UniProt Q13568-2, residues 1-514, K96S/S451D/S453D/S456D/S462D)
With `TTAGGTATCCGTTTCCTTTAGTGCTAG` the log fluorescence was 1.06 z-score.
With `TTAGATATGAGACTGGATTAGTGCTAG` the log fluorescence was 0.0542 z-score.
`ATAGATTTCGGGTTTCGATTAGTGCTA` has a log fluorescence of 8.67 z-score.
The log fluorescence of `TTAGGTATCGGTTTCGGTGAGTGCTAG` is reported as 10 z-score.
The log fluorescence of `TCAAGTTTTACTTTCTAACTGTGCTAG` is reported as 1.96 z-score.
With `TTAGGTATCGTGACTGGGTTAGTGCTA` the log fluorescence was 0.461 z-score.
For `TTAGACATCGGGTATCGATTAGTGCTA`, the log fluorescence was 3.61 z-score.

Single results of other studies
The fold induction of `PhoQ, residues 284 288 289 292 302 303 ALSMDL` is reported as 4.67 (PhoP, residues 12 14 15 18 19 MHTVL (Escherichia coli, UniProt P23836); Sort-seq, refers to: YFP reporter; E. coli; PhoQ-PhoP variant library, added: 10 µM Mg2+; reference: high Mg2+ state, higher = stronger signaling).

For quick reference, copied from above (set 3):
The log fluorescence of `TCAAGTTTTACTTTCTAACTGTGCTAG` is reported as 1.96 z-score.
